Measurements pooled from the literature.
Protocols differ between the studies behind these lines.
Cell line: Vero E6

Structure (SMILES)	assay	setting	how to read	endpoint	result
O=C(/C=C/c1ccc(O)c(O)c1/C=C/c1ccc(O)c(O)c1)O[C@H](Cc1ccc(O)c(O)c1)C(=O)O	–	6.25 µM	–	cytotoxicity	0%
N=C(N)NCCCCC(=O)N[C@@H](CCC(N)=O)C(=O)N[C@@H](CCc1ccccc1)C(=O)N[C@@H](CCCNC(=N)N)C(=O)c1nc2ccccc2s1	CellTiter-Glo	10 µM, 24 h	baseline: DMSO	cytotoxicity	not toxic
COc1ccc2c(Sc3ccc(Cl)cc3)c(C(=O)NCCCN3CCCCC3)[nH]c2c1	cytotoxicity, CellTiter-Glo	retest 8-point, no virus	–	AC50	14.1 µM
COc1cccc2c(N3CCc4ccccc4C3C)nc(Nc3ccc(F)cc3C)nc12 (stereo not shown)	cell number	40 (unit not given)	–	CC50	> 2.5 µM
CC(C)(C)[C@@H]1NC(=O)O[C@@H]2CCC[C@H]2OC/C=C/C(F)(F)c2nc3ccccc3nc2O[C@@H]2C[C@@H](C(=O)N[C@]3(C(=O)NS(=O)(=O)C4(C)CC4)C[C@H]3C(F)F)N(C2)C1=O	cell viability, MTT	48 (unit not given)	–	CC50	> 50 µM
CC[C@H](NC(=O)[C@H](CS(=O)(=O)CC1CC1)N[C@@H](c1ccc(F)cc1)C(F)(F)F)C(=O)C(=O)NC1CC1	cell number	40 (unit not given)	–	CC50	> 2.5 µM
Cc1nn(-c2ccc(Cl)cc2)c2c1C(c1ccc(I)cc1)C(C#N)=C(N)O2 (stereo not shown)	MTT	25 µM	–	viability	58.8%
O=C(O[C@@H]1Cc2c(O)cc(O)cc2O[C@@H]1c1cc(O)c(O)c(O)c1)c1cc(O)c(O)c(O)c1	–	12.5 µM	–	cytotoxicity	0%
Cc1nn(-c2ccc(Cl)cc2)c2c1C(c1ccc(Cl)cc1)C(C#N)=C(N)O2 (stereo not shown)	MTT	25 µM	–	viability	52.9%
CCC(CC)COC(=O)[C@H](C)N[P@](=O)(OC[C@H]1O[C@@](C#N)(c2ccc3c(N)ncnn23)[C@H](O)[C@@H]1O)Oc1ccccc1	–	with: verapamil	–	intracellular fraction	0.03
C=C[C@@](C)(/C=C/c1ccc(O)cc1)CCC=C(C)C	–	200 µM	–	cytotoxicity	25%
CCN(CCO)CCCC(C)Nc1ccnc2cc(Cl)ccc12 (stereo not shown)	–	concentration not given, 4 (unit not given), with: verapamil	–	unbound fraction in cells	0.00024
C[C@@H]1CN(c2ncc(C(O)CO)cc2Cl)CCN1c1nc2c(-c3cc(F)c(F)c(F)c3)cc(C(F)(F)F)cc2[nH]1 (stereo partly shown)	cell number	40 (unit not given)	–	CC50	> 2.5 µM
COc1cccc(-c2ccc(CN3CCCC(c4nc5ccc(C)cc5c(=O)[nH]4)C3)cc2)c1 (stereo not shown)	cytotoxicity, CellTiter-Glo	retest 8-point, no virus	–	AC50	28.2 µM
Cc1cccc(/C=N/Nc2cc(N3CCOCC3)nc(OCCc3ccccn3)n2)c1	cell number	40 (unit not given)	–	CC50	~2.5 µM
CC(C)(C)OC(=O)N[C@H]1CCCCC/C=C\[C@@H]2C[C@@]2(C(=O)NS(=O)(=O)C2CC2)NC(=O)[C@@H]2C[C@@H](OC(=O)N3Cc4cccc(F)c4C3)CN2C1=O	cell viability, MTT	48 (unit not given)	–	CC50	> 50 µM
COc1ccc(C[C@@H]2c3cc(Oc4cc(C[C@@H]5c6cc(O)c(OC)cc6CCN5C)ccc4O)c(OC)cc3CCN2C)cc1	–	6.25 µM	–	cytotoxicity	0%
CC(C)CC(NC(=O)OCc1ccccc1)C(=O)NC(C(=O)NCC(=O)C=[N+]=[N-])C(C)C (stereo not shown)	cell number	40 (unit not given)	–	CC50	> 2.5 µM
CC(C)=CCc1c(O)ccc(C(=O)/C=C/c2ccc(O)cc2)c1O	–	6.25 µM	–	cytotoxicity	0%
COc1ccc(CCN2CCC(Nc3nc4ccccc4n3Cc3ccc(F)cc3)CC2)cc1	cell number	40 (unit not given)	–	CC50	> 2.5 µM
NC(=O)c1nc(F)c[nH]c1=O	–	with: verapamil	–	intracellular fraction	0.05
Cn1c(=O)c2c(nc(C=Cc3cccc(Cl)c3)n2C)n(C)c1=O	cell number	40 (unit not given)	–	CC50	~2.5 µM
Cc1noc2c(NC3CCOCC3)cc(-c3cccc(C(F)(F)F)c3)nc12	cytotoxicity, CellTiter-Glo	retest 8-point, no virus	–	AC50	25.1 µM
CC(C)(C)NC(=O)N[C@H](C(=O)N1C[C@H]2[C@@H]([C@H]1C(=O)NC(CC1CCC1)C(=O)C(N)=O)C2(C)C)C(C)(C)C (stereo partly shown)	cell viability, MTT	48 (unit not given)	–	CC50	> 50 µM
CCC(CC)COC(=O)[C@H](C)N[P@](=O)(OC[C@H]1O[C@@](C#N)(c2ccc3c(N)ncnn23)[C@H](O)[C@@H]1O)Oc1ccccc1	cell number	40 (unit not given)	–	CC50	> 2.5 µM

For quick reference, copied from above:
Structure (SMILES)	assay	setting	how to read	endpoint	result
COc1cccc(-c2ccc(CN3CCCC(c4nc5ccc(C)cc5c(=O)[nH]4)C3)cc2)c1 (stereo not shown)	cytotoxicity, CellTiter-Glo	retest 8-point, no virus	–	AC50	28.2 µM
Cn1c(=O)c2c(nc(C=Cc3cccc(Cl)c3)n2C)n(C)c1=O	cell number	40 (unit not given)	–	CC50	~2.5 µM
N=C(N)NCCCCC(=O)N[C@@H](CCC(N)=O)C(=O)N[C@@H](CCc1ccccc1)C(=O)N[C@@H](CCCNC(=N)N)C(=O)c1nc2ccccc2s1	CellTiter-Glo	10 µM, 24 h	baseline: DMSO	cytotoxicity	not toxic
